Experimental data collected from several papers.
Numbered parts are unrelated; each lists some results of a single study.

Series 1
Target: Sal-like protein 4, full length isoform A (SALL4, Homo sapiens, UniProt Q9UJQ4, residues 1-1053)
Sequence of UniProt Q9UJQ4 (whole entry, looked up): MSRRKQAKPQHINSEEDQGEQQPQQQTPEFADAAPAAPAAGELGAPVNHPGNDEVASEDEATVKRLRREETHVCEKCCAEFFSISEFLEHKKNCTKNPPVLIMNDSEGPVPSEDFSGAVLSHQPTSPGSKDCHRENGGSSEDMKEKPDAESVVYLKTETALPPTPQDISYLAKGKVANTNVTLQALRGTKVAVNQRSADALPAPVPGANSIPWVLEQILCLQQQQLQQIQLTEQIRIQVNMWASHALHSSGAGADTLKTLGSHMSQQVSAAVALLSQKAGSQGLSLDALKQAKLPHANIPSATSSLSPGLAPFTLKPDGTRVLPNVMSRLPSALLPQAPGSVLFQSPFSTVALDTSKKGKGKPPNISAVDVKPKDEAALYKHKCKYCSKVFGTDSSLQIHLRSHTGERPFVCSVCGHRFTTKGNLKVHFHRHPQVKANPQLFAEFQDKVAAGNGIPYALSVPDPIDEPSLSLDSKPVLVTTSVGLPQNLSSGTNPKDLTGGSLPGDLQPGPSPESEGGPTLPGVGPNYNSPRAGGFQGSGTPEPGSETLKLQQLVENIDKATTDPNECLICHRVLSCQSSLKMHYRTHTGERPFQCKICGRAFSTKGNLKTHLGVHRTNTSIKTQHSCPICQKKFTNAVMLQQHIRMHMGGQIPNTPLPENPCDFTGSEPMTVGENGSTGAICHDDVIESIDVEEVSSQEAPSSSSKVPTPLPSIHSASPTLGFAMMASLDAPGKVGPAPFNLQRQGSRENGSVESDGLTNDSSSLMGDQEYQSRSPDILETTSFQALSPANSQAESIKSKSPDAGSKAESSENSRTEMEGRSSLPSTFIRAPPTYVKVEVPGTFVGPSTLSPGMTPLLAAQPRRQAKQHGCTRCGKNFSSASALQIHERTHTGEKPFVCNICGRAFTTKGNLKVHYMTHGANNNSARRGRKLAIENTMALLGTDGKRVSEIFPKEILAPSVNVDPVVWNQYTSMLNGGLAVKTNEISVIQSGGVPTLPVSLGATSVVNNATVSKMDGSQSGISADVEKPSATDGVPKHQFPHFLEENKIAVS
Method: universal PBM
Molecule type: double-stranded DNA, one strand shown
Medium: in vitro
Tested at: 600 nM
Notes: 8-mer, flanks averaged, mean of replicates
Reading: higher = stronger binding
The E-score of `CGAAAATC` is reported as 0.173.
The E-score of `AAAGCTTG` is reported as 0.0623.
With `TTAATTAA` the E-score was 0.361.
The E-score of `TCGCGACA` is reported as -0.0432.
`AGTGCGAA` gave an E-score of -0.156.
`AAAGGTGA` has an E-score of 0.0899.
The E-score of `CCTTTTGA` is reported as 0.187.
The E-score of `CATCTAAC` is reported as 0.0735.
`CATGTGGC` gave an E-score of -0.0039.
`ATACTAAG` gave an E-score of 0.186.
`GTGACCCA` has an E-score of -0.162.
The E-score of `GAGAAAGC` is reported as -0.0367.
The E-score of `CTGTCGCC` is reported as -0.277.
`GACGAGGC` has an E-score of -0.226.
`CAAAAAGA` has an E-score of 0.212.
The E-score of `AGCATCGG` is reported as -0.201.
The E-score of `CGGACAAA` is reported as -0.0147.
The E-score of `CGCGGCGA` is reported as -0.293.
`ATACTGTA` has an E-score of 0.189.
For `GGTGGCTA`, the E-score was -0.193.
For `GAGCACCC`, the E-score was -0.348.
With `GCGAGGAA` the E-score was -0.0541.
With `GCAAACAA` the E-score was 0.0731.
With `AACGAGAA` the E-score was 0.251.
`ACTGAATG` gave an E-score of 0.138.

Series 2
Target: RNA binding protein fox-1 homolog 2, RRM domain, GST-SBP tag (RBFOX2, Homo sapiens, UniProt O43251-10, residues 100-194)
Method: RNA Bind-n-Seq
Molecule type: RNA
Medium: in vitro
Tested at: 365 nM
Notes: natural RNA segment, single round, ends assumed
Baseline: no-protein control
Reading: higher = stronger binding
Residues (chain): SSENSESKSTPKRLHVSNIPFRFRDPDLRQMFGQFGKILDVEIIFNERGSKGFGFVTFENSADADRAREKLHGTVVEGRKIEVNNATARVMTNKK
Under “RBNS enrichment (R)”, `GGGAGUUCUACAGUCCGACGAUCGAAAGGCGGCAAUAUUCAAACCAGAGACCCUGGGCAUCGGUGUAGCCAGUCUGAAGGCCUGAGCCAGGAGCGCUGUGUGGGUUGCCUGUCUCAGGUCGUUGUCAUUUGCCUGGAAUUCUCGGGUGCCAA` is recorded as 0.249.
Under “RBNS enrichment (R)”, `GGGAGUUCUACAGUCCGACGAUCUGACAUUGGUGCUCUCUAGAAAUCUCAGCAUGAGCUGCUAUAGAAUACCCUCCCAGCAACAAAACCUAAUCAGUAAGGCCAGCUAGACCCAAUGGCUCAUGCCUGUAAUCUGGAAUUCUCGGGUGCCAA` is recorded as 2.78.
For `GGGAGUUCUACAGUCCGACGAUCUGAUGUGGGGAUGGGCCUCUUCUACAUUACCUUGGCCCAGGGGGAUCAGCUGGCUGGGAGGAUUAGUGAGCACCUCUGUAUUUUGAGGUCUGAGUCUUCUGGAGCUGUGUUGGAAUUCUCGGGUGCCAA`, “RBNS enrichment (R)” read 0.446.
For `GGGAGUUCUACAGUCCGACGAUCCUACUUACGCGAACACAGCAGGUUGGUGUGGCUGGCUAACUAGGACCUCUCGAAAGUCUCUGUGGGGGCAUGAGGGAGAAAAGGCCAUUGGGAGAAUUACUGCCUUUACUUGGAAUUCUCGGGUGCCAA`, “RBNS enrichment (R)” read 0.344.
For `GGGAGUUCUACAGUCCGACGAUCUUGUAGAAAAAAAAAAUCACAUCAUGGUGCUCCUGCGAUCAGCUUCUGAAGUGCUGGGAGCAUAGGAAGAUUGACAUUCUGUGUGACUUGUGAGGCUCAGAUGCUGAUACUGGAAUUCUCGGGUGCCAA`, “RBNS enrichment (R)” read 0.307.
`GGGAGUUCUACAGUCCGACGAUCUAAAAUAGAGCAGAAAAACACAAAAAGAGAACACUGGUUCAGACAUUCAGUGGGCAAGUAAAUUAUGGACUGCAAAAUAAUGAUUUUUAUUCAAGAAAGCUUUAAAAGUUUGGAAUUCUCGGGUGCCAA`: “RBNS enrichment (R)” 1.02.
Under “RBNS enrichment (R)”, `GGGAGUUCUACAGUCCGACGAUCAUGGAUGGAUAAUAAGCCAAGUCUUGAAUCAUUCCUAUCAAGAUUAGUAUACAUGAGGAAGAGGUGGCAUGGGGGGAAGGGGCUCUGGGAGUUCAGAGCUGAGUACUUGUUGGAAUUCUCGGGUGCCAA` is recorded as 2.29.
Under “RBNS enrichment (R)”, `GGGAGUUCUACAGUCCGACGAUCUUAUGGAGGAUUGCAUGCAGGAUACACACUUCAUUAAAUCCUCUAAAAUCUAACUUUGAUUAAUUAAGUACAGGGUUAUUGCUGAUAGCCUCAUAACUCUACCACCAUUAUGGAAUUCUCGGGUGCCAA` is recorded as 0.753.

Series 3
Target: Interferon regulatory factor 5, full length, phosphomimetic (IRF5, Homo sapiens, UniProt Q13568-2, residues 1-514, S451D/S453D/S456D/S462D)
Method: protein-binding microarray
Molecule type: double-stranded DNA, one strand shown
Medium: in vitro
Tested at: 940 nM top
Notes: 60-bp whole probe
With: salmon DNA 0.4 mg/ml
Baseline: random background probes
Reading: higher = stronger binding
Shared flanks, not repeated: GCCTAGCAC … GTCTTGATTCGCTTGACGCTGCTG
`GACGCTATCGGGTTTCGAGACGTGCTA`: “fitted relative affinity” 2.05 z-score.
Under “fitted relative affinity”, `GACGGACTAGGTCTCGGGACGTGCTAG` is recorded as -0.364 z-score.
`GACGATATCACTATCGAGACGTGCTAG`: “fitted relative affinity” 0.338 z-score.
Under “fitted relative affinity”, `GACGATATCGGGTATCGAGAAGTGCTA` is recorded as 0.752 z-score.
For `TTAGCACTGAGTTTCGATTAGTGCTAG`, “fitted relative affinity” read 7.18 z-score.
For `TTAGCACTGGACACTGGGTTAGTGCTA`, “fitted relative affinity” read -0.686 z-score.
`TCGAGTCTGCAACATGGGACTGTGCTA` — result for “fitted relative affinity”: -0.152 z-score.
Under “fitted relative affinity”, `GACGATCTGGGGTTTCGAGACGTGCTA` is recorded as 2.44 z-score.
`TTAGGTATGGGGACTGGGTTAGTGCTA`: “fitted relative affinity” 0.179 z-score.
`TCAGATTTCAGTATCGATTAGTGCTAG` — result for “fitted relative affinity”: 6.08 z-score.
`GACGATATCGGGTATCGAGTCGTGCTA`: “fitted relative affinity” 1.27 z-score.
`TTAGGTTTCGGCTTCGGTTAGTGCTAG`: “fitted relative affinity” 9.74 z-score.
`GACGGTTTCCAACTGCTGACGTGCTAG`: “fitted relative affinity” 0.386 z-score.
For `GATGGACTGGGGACTGGGGACGTGCTA`, “fitted relative affinity” read -0.357 z-score.
For `GACGATTTCAGTCTCGTGACGTGCTAG`, “fitted relative affinity” read 0.78 z-score.
`TTAGGACTGCAACTGCTTTAGTGCTAG` — result for “fitted relative affinity”: -0.566 z-score.
For `TCATGAGTCCCTATCTCACTGTGCTAG`, “fitted relative affinity” read -0.174 z-score.

Series 4
Target: Histone acetyltransferase KAT6A, winged helix 2, GST fusion (KAT6A, Homo sapiens, UniProt Q92794, residues 85-181)
Method: protein binding microarray
Molecule type: double-stranded DNA, one strand shown
Medium: in vitro
Tested at: not given
Notes: 8-mer, flanks averaged, mean of 2 arrays, mostly near background
Baseline: not given
Reading: higher = stronger binding
Residues (chain): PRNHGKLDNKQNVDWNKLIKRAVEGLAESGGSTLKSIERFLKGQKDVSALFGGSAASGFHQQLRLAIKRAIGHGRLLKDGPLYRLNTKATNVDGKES
`CATAGCGC` has an E-score of -0.00767.
The E-score of `AGACACGA` is reported as -0.0611.
The E-score of `CCGCCGTA` is reported as 0.0778.
`AACAAGCG` has an E-score of 0.0352.
The E-score of `AAAGCGTA` is reported as -0.216.
The E-score of `AATGTAGC` is reported as 0.0147.
For `TCGATACA`, the E-score was -0.0364.
`AAGAATCG` gave an E-score of 0.0388.
`AAGGGCAG` has an E-score of -0.0416.
`GTATATAC` gave an E-score of -0.18.
The E-score of `AGGCGGCG` is reported as 0.123.
`ACCTACGC` has an E-score of -0.0395.
With `CCGATGTA` the E-score was -0.186.
`CGTAGCTC` gave an E-score of 0.0016.
With `CTCCGACA` the E-score was 0.0149.
With `AGCTCTAG` the E-score was 0.0191.
The E-score of `AGCTCGAC` is reported as 0.0555.

Excerpt of the above (series 3):
Under “fitted relative affinity”, `GACGGACTAGGTCTCGGGACGTGCTAG` is recorded as -0.364 z-score.
For `GATGGACTGGGGACTGGGGACGTGCTA`, “fitted relative affinity” read -0.357 z-score.
Under “fitted relative affinity”, `GACGATCTGGGGTTTCGAGACGTGCTA` is recorded as 2.44 z-score.
